Published values gathered from unrelated publications.
Every numbered part comes from another study and shows a few of its results, in no order.

Sample 1 — method: protein-binding microarray; form: double-stranded DNA, one strand shown; medium: in vitro; tested at: 940 nM top; setting: 60-bp whole probe; added: salmon DNA 0.4 mg/ml; relative to: random background probes; direction: higher = stronger binding; constant ends, left off below: GCCTAGCAC … GTCTTGATTCGCTTGACGCTGCTG
Target: Interferon regulatory factor 5, full length, phosphomimetic (IRF5, Homo sapiens, UniProt Q13568-2, residues 1-514, S451D/S453D/S456D/S462D)
Strand | fitted relative affinity
TTAGATTTCCGGACTGGATTAGTGCTA | -0.228 z-score
TCACTACTGTATTTGGCACTGTGCTAG | 0.231 z-score
TTAGGTTCCAGTTTCGGTTAGTGCTAG | 9.01 z-score
ACATATATACAGAGATAGATGTGCTAG | 0.0279 z-score
TTAGAACTGGGGTTTCGATTGGTGCTA | 5.28 z-score
AAGTGTGCCCATCTCTGCTCGTGCTAG | 0.145 z-score
GACGGTATTCTTATCCTGACGTGCTAG | 0.562 z-score
GACGATTTCGGATTTCGAGACGTGCTA | 0.794 z-score

Sample 2 — target: human cyclin B2; observed: peptide binding; method: yeast competitive growth sequencing; form: peptide; organism: Saccharomyces cerevisiae; strain: cyclin B2-Cln2 fusion; tested at: concentration not given; setting: peptide tiling library; direction: direction not given
Sequence | binding enrichment score
LRRKLFLDGNGSIS | 0.188
ESSTVSEEDYFSSHRD | 0.704
VLVRTSACRSLFGPVD | 0.904
QYQVVDDIVSKLVFDF | 0.0222
DKYDEGLYRFNSLNDL | 0.644
RDLFDCDFGDLTPLDF | -0.334

Sample 3 — method: competition protein-binding microarray; form: double-stranded DNA, one strand shown; medium: in vitro; tested at: 2 µM; added: Pho4 competitor, 0.05 µM; direction: higher = stronger binding
Target: Centromere-binding protein 1, full length, His-tagged (CBF1, Saccharomyces cerevisiae, UniProt P17106, residues 1-351)
UniProt P17106, sequence (whole entry, looked up): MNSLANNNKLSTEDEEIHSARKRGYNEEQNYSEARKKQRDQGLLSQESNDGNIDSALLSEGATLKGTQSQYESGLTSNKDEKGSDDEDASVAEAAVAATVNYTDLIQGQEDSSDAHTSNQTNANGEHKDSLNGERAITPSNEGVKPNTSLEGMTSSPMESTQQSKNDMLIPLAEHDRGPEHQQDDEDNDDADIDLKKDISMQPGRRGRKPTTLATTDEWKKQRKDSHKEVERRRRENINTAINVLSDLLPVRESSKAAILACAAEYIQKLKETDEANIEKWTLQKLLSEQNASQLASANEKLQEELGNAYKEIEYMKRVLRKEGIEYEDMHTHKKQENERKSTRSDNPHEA
Setting: whole 60-bp probe, lowest competitor level
Strand | fluorescence intensity [a.u.]
AATAATTTATTTTATCATGTGACGCCGATCCGGGTGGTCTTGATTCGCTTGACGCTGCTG | 2090
CAGTCACCGTTTGGTAGATAACGACCTAAATCACCCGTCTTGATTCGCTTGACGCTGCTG | 75.1
CGGGGTTAAGTTTGTTGAGTGGGTGGCTTGCAGCAGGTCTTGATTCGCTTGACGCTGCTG | 91.5
ACTTTTATCGGTTCATGTGTGACGGCTCAGCTCGTCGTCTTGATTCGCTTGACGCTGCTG | 77.4
CCGATTTTGTCCTTTAGCGTGACTCGGATTATACGCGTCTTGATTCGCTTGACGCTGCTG | 239
TGCAGCACCCAGCTTCCCGTGTATCCATACCACCCTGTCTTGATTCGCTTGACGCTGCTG | 84
AAAGCGGTAATTTGTCACCACACTTCACATATCTATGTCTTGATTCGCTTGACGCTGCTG | 105
AAAGCGGTAATTTGTCACTGGACTTCACATATCTATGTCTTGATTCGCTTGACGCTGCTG | 114
TGCGCAACAACTTGATGGGTGGGTGTATGTCTAGAAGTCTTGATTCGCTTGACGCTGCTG | 69.2
ATCCCAATACAATTTAACGTGGGACCACCTACCATGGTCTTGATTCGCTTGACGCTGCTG | 76.4
AAAGCGGTAATTTGAAGAGTGGGTGCAGATATCTATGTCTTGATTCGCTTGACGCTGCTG | 65.2
ATCTTATTGATGTATTTCATATTATTGTTTTTTTTAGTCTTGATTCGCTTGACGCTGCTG | 85.1
CGGGGTTAAGTTTGTCACGAGACTTGCTTGCAGCAGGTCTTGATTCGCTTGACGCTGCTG | 970

Other studies, line by line
Molecule | target | test | system | setting | how to read | measurement | result
PhoQ, residues 284 288 289 292 302 303 NLSRDF | PhoP, residues 12 14 15 18 19 NFCKL (Escherichia coli, UniProt P23836) | Sort-seq, refers to: YFP reporter | E. coli | PhoQ-PhoP variant library, added: 10 µM Mg2+ | relative to: high Mg2+ state, higher = stronger signaling | fold induction | 3.73
